Earlier results as cited in several papers.
Each line is one published result; not all experiments were run side by side. “And” joins repeats or separate records; there may be more than shown. ± marks the error that the study gave.
Sequence of UniProt P06536 (whole entry, looked up): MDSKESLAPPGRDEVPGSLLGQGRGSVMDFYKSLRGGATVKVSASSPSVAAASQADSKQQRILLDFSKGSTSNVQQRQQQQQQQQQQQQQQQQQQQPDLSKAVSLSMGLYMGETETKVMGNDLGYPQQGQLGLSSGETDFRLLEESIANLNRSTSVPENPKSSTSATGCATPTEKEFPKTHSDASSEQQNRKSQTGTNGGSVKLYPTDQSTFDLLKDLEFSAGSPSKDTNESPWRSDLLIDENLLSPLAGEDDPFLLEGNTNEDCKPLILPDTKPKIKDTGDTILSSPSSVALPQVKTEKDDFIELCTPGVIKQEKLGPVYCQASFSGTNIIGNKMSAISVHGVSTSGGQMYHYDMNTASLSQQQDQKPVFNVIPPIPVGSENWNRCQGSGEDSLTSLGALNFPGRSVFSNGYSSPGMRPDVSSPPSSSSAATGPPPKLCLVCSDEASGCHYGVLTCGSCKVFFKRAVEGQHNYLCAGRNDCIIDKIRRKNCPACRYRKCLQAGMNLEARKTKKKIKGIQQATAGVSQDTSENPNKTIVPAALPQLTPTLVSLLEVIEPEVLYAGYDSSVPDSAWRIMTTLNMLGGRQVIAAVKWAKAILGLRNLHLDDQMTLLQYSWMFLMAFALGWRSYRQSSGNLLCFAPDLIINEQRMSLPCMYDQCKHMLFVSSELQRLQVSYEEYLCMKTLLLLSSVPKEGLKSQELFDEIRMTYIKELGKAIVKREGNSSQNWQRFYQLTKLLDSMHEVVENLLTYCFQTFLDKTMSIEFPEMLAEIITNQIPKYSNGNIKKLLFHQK
Sequence of UniProt O00750 (whole entry, looked up): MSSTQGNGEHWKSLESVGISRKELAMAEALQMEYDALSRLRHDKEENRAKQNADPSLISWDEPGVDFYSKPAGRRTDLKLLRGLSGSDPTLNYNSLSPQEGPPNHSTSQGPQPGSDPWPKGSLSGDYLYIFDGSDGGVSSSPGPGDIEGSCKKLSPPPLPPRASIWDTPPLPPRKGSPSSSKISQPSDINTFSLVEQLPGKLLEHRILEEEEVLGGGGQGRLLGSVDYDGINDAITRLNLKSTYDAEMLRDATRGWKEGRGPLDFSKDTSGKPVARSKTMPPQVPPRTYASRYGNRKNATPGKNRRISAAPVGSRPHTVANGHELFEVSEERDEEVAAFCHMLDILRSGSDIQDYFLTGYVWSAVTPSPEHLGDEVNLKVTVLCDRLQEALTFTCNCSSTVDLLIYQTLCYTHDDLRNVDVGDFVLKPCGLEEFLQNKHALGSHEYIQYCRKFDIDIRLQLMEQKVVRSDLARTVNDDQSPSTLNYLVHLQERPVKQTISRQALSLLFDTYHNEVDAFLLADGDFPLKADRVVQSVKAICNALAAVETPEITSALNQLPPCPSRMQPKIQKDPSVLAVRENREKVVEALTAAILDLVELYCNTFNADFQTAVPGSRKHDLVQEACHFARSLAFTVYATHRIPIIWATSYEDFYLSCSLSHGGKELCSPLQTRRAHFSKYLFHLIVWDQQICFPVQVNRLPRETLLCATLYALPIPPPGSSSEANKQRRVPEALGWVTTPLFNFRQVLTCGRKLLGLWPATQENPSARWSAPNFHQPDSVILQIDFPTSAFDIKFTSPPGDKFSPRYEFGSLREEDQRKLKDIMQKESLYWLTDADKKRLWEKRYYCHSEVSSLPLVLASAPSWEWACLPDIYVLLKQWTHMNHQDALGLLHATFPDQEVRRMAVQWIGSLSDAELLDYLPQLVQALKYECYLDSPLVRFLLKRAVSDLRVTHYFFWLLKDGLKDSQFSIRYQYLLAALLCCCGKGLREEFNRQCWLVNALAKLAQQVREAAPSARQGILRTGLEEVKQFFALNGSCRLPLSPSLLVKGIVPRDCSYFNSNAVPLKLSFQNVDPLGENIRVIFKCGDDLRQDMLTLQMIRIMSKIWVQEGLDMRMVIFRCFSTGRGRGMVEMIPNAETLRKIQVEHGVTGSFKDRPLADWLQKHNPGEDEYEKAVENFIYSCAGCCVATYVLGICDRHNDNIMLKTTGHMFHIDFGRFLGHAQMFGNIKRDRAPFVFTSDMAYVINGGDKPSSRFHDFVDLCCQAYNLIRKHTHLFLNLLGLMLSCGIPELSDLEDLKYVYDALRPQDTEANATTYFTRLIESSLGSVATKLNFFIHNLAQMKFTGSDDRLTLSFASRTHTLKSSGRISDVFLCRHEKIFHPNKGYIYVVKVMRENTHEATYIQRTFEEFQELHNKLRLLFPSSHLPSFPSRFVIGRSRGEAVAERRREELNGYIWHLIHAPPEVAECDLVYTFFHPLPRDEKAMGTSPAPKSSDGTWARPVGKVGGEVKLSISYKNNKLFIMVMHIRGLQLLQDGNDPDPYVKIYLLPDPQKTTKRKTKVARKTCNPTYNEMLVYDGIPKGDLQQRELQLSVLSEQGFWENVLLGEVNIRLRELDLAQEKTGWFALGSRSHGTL
Sequence of UniProt Q99814 (whole entry, looked up): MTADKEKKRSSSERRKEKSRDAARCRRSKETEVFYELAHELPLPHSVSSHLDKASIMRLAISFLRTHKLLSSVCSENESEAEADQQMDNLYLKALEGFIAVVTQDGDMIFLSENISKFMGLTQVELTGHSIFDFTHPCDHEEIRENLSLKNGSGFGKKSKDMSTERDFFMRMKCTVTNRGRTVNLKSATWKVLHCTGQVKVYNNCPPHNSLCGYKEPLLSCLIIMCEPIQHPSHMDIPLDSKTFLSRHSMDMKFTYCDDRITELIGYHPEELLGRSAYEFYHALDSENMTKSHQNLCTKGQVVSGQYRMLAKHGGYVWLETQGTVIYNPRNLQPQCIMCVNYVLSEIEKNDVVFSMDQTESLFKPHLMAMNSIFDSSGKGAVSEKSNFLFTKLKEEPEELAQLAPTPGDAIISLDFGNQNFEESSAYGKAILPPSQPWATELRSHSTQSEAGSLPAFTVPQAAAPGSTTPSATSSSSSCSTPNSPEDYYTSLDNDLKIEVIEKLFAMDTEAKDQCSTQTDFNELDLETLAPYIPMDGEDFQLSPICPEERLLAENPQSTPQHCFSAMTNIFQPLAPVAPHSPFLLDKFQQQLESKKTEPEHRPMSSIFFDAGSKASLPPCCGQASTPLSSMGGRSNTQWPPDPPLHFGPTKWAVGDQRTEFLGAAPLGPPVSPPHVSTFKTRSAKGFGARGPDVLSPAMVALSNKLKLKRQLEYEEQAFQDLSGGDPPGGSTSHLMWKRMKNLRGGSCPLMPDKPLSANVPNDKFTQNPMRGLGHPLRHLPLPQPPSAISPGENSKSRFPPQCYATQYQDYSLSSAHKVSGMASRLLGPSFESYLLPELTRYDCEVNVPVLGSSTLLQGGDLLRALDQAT
Sequence of UniProt Q9HCP0 (whole entry, looked up): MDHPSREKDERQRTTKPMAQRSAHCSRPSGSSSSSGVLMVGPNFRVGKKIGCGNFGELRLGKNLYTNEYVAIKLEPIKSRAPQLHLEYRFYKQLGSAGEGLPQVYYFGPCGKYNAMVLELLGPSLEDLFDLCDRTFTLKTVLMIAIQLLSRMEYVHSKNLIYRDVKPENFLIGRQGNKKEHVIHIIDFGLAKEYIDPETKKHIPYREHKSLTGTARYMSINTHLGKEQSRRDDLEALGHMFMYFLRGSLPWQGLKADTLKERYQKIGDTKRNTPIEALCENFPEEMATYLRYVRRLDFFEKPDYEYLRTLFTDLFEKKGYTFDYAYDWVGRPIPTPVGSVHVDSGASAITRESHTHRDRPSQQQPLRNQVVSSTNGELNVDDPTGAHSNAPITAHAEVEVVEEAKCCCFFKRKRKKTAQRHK
Sequence of UniProt P35348 (whole entry, looked up): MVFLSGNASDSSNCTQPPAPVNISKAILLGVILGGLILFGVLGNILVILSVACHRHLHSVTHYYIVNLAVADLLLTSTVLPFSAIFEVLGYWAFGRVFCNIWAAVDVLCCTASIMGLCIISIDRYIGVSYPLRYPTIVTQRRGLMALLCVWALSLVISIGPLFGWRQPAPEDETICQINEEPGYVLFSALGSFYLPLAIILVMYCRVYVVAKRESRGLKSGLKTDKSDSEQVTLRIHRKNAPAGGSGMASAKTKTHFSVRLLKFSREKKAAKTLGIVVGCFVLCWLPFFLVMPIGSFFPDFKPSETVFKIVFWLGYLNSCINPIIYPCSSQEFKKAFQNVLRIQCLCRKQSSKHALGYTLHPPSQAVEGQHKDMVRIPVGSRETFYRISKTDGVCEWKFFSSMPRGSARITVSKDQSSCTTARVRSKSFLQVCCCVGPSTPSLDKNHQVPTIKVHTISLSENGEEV
Sequence of UniProt P14867 (whole entry, looked up): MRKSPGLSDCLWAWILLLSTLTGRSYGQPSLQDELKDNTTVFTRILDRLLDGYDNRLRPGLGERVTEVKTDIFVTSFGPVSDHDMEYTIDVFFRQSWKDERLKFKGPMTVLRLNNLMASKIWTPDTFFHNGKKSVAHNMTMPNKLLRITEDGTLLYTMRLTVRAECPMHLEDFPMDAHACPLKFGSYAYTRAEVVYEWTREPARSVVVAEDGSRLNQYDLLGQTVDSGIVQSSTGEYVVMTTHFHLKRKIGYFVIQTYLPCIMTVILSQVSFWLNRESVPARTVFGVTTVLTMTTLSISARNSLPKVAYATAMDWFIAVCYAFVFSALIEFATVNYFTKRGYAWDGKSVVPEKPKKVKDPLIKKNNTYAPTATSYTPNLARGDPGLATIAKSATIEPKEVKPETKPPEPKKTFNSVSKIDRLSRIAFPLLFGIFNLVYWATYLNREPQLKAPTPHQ
Sequence of UniProt P20789 (whole entry, looked up): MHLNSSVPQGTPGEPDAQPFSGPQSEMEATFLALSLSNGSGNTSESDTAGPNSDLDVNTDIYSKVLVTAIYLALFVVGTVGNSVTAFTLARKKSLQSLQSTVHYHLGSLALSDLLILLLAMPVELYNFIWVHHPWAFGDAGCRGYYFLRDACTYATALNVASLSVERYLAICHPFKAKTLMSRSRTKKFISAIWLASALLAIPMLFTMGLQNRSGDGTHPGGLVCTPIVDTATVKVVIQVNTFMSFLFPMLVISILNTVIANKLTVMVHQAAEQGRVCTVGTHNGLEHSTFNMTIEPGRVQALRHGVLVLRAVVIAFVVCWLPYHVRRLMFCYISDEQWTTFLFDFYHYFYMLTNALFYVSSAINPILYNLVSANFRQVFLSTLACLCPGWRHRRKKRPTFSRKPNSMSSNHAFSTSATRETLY

CNC(C)C1CCC(N)C(OC2C(N)CC(N)C(OC3OCC(C)(O)C(NC)C3O)C2O)O1 (centres unmarked)  MIC (Pseudomonas aeruginosa; clinical isolate RKI-No_21/11): > 8 µg/mL
O=[N+]([O-])c1cc(C(F)(F)F)ccc1NCc1ccco1  binding enthalpy (Endothelial PAS domain-containing protein 1, PAS-B domain (EPAS1, Homo sapiens, UniProt Q99814); isothermal titration calorimetry; concentration not given, <0.1% DMSO): -8.4 kcal/mol
Cc1cn([C@H]2C[C@H](O)[C@@H](CO)O2)c(=O)nc1N  Km (cytidine deaminase (human); substrate; concentration not given): 8 µM
O=C(O)/C(=C/c1c(C(=O)O)[nH]c2cc(Cl)cc(Cl)c12)c1ccccc1  Hill coefficient (Grin1 (Rattus norvegicus, UniProt P35439); historical reference value): 0.6
Cc1nc(NC(=O)N2CCC[C@H]2C(N)=O)sc1-c1ccnc(C(C)(C)C(F)(F)F)c1  remaining binding (PIK3C2B (Homo sapiens, UniProt O00750); KinomeScan competition binding; 10 µM): 4%
N[C@@H](CC(=O)c1ccccc1)C(=O)O  benzoate formation rate (kynureninase (Pseudomonas fluorescens); substrate): ~1 s⁻¹
COc1cc2c3c(c1OC)-c1cc4c(cc1CC3N(C)CC2)OCO4 (centres unmarked)  Ke (ADRA1A (Homo sapiens, UniProt P35348); antagonist): 36 ± 7 nM
Cc1cc(NC(=O)c2cccc(NC(=O)/C=C/CN(C)C)c2)ccc1Nc1nccc(-c2cccnc2)n1  remaining activity (KIT (Homo sapiens, UniProt P10721); enzyme activity, inhibitor; 1 µM; baseline: vehicle): 4%
N=C1NC(=O)C2(CCc3ccccc32)C(=O)N1 (centres unmarked)  inhibition (GABA-A receptor alpha-1/beta-3 (GABRA1/GABRB3, Homo sapiens, UniProt P14867+P28472); reversal, anesthetic-enhanced desensitization; concentration not given, α1β3 receptor; higher is stronger): 75%
CC1(C)S[C@@H]2[C@H](NC(=O)[C@H](N)c3ccccc3)C(=O)N2[C@H]1C(=O)O  MIC (Pseudomonas aeruginosa; clinical isolate RKI-No_369/11): > 16 µg/mL
Cc1[nH]c(C)c(-c2ccc(OCc3ccc(OC(F)(F)F)cc3)nc2)c(=O)c1Cl  IC50 (Plasmodium falciparum; whole cell extended time; 3D7; 72 h): 70 nM
Nc1cc(C(F)(F)F)c(-c2nc(N3CCOCC3)nc(N3CCOCC3)n2)cn1  remaining activity (CSNK1G1 (Homo sapiens, UniProt Q9HCP0); enzyme activity; 10 µM; baseline: untreated): 100%
CCC(=O)O[C@]1(C(=O)SCF)[C@H](C)C[C@H]2[C@@H]3C[C@H](F)C4=CC(=O)C=C[C@]4(C)[C@@]3(F)[C@@H](O)C[C@@]21C  receptor occupancy (Nr3c1 (Rattus norvegicus, UniProt P06536); rat, spleen; intravenous, 90 nmol/kg, 4.008 (unit not given)): 38.3% and 20.7%
CC(C)CCC[C@@H](C)[C@H]1CC[C@H]2[C@@H]3[C@H](O)CC4=CC(=O)CC[C@]4(C)[C@H]3CC[C@]12C  Km (7-alpha-hydroxycholest-4-en-3-one 12-alpha-hydroxylase (Homo sapiens, UniProt Q9UNU6, W281F); substrate; W281F mutant): 0.54 µM
CO[C@H]1/C=C/O[C@@]2(C)Oc3c(C)c(O)c4c(O)c(c(/C=N/N5CCN(C)CC5)c(O)c4c3C2=O)NC(=O)/C(C)=C\C=C\[C@H](C)[C@H](O)[C@@H](C)[C@@H](O)[C@@H](C)[C@H](OC(C)=O)[C@@H]1C  Km (arylacetamide deacetylase (human); substrate): 195 µM
CCCCN(C)CC#Cc1ccc2[nH]c(C)c(Cl)c(=O)c2c1  IC50 (Plasmodium falciparum; whole cell extended time; 3D7; 72 h): 130 nM
COc1cccc(OC)c1-c1cc(C(=O)NC2(C(=O)O)CCCCC2)nn1-c1ccnc2cc(Cl)ccc12  Ke (Ntsr1 (Rattus norvegicus, UniProt P20789); antagonist, FLIPR calcium): 157 ± 45 nM

Repeated from above:
CCCCN(C)CC#Cc1ccc2[nH]c(C)c(Cl)c(=O)c2c1  IC50 (Plasmodium falciparum; whole cell extended time; 3D7; 72 h): 130 nM
Cc1[nH]c(C)c(-c2ccc(OCc3ccc(OC(F)(F)F)cc3)nc2)c(=O)c1Cl  IC50 (Plasmodium falciparum; whole cell extended time; 3D7; 72 h): 70 nM
CC(C)CCC[C@@H](C)[C@H]1CC[C@H]2[C@@H]3[C@H](O)CC4=CC(=O)CC[C@]4(C)[C@H]3CC[C@]12C  Km (7-alpha-hydroxycholest-4-en-3-one 12-alpha-hydroxylase (Homo sapiens, UniProt Q9UNU6, W281F); substrate; W281F mutant): 0.54 µM
